# Experimental data gathered from unrelated publications.
# Each numbered part is a random draw from the data of one study; scales do not carry over between parts. “And” joins repeats or separate records; there may be more than shown.
# UniProt Q9H3Y6, sequence (whole entry, looked up): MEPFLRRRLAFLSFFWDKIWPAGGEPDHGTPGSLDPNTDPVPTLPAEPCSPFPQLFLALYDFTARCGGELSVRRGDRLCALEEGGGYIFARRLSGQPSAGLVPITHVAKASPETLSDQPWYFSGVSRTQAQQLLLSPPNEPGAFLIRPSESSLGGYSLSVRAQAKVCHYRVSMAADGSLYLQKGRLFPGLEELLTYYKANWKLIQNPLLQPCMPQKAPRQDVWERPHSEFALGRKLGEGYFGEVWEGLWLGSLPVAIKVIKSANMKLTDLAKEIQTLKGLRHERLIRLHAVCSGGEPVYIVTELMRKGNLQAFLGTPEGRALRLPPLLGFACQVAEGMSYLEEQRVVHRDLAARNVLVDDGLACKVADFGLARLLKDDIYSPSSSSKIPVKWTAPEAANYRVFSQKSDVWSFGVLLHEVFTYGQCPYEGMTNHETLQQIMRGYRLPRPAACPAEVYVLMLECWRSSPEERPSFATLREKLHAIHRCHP
# UniProt P49759, sequence (whole entry, looked up): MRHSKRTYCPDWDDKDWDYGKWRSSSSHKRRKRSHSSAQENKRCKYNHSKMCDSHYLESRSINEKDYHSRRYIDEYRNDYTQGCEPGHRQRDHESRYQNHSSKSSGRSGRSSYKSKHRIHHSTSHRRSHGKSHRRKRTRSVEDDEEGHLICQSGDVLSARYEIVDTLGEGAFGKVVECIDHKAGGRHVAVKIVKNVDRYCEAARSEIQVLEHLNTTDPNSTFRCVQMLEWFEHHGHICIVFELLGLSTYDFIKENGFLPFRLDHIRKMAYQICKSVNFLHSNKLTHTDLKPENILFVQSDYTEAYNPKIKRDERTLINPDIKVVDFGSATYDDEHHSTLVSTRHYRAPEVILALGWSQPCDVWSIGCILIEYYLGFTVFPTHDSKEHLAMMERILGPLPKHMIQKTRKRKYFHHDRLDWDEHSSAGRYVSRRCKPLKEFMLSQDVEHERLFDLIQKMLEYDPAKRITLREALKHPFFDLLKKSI
# UniProt Q9UQM7, sequence (whole entry, looked up): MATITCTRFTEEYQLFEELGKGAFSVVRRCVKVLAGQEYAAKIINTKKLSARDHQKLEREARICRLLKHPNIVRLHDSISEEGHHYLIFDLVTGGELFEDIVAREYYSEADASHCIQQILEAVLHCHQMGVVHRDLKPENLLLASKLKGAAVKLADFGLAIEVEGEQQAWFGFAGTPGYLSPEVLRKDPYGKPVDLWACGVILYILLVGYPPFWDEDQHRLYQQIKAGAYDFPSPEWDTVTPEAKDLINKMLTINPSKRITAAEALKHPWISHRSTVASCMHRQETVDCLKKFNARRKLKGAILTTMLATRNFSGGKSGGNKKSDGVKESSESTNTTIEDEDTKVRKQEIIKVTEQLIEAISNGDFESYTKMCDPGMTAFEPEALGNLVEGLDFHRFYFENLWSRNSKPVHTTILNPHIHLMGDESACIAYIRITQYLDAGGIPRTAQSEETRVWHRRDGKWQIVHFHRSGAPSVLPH
# UniProt P0C264, sequence (whole entry, looked up): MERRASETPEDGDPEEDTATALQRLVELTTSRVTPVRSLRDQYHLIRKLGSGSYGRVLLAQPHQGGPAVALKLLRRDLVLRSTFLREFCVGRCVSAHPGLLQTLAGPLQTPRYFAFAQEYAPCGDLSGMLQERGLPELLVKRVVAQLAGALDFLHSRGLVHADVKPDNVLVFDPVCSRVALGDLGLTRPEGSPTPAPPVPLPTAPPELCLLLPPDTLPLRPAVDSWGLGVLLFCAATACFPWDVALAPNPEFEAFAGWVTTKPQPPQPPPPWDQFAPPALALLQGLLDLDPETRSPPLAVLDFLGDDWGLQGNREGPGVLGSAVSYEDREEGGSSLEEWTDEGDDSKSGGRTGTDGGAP
# UniProt Q9C098, sequence (whole entry, looked up): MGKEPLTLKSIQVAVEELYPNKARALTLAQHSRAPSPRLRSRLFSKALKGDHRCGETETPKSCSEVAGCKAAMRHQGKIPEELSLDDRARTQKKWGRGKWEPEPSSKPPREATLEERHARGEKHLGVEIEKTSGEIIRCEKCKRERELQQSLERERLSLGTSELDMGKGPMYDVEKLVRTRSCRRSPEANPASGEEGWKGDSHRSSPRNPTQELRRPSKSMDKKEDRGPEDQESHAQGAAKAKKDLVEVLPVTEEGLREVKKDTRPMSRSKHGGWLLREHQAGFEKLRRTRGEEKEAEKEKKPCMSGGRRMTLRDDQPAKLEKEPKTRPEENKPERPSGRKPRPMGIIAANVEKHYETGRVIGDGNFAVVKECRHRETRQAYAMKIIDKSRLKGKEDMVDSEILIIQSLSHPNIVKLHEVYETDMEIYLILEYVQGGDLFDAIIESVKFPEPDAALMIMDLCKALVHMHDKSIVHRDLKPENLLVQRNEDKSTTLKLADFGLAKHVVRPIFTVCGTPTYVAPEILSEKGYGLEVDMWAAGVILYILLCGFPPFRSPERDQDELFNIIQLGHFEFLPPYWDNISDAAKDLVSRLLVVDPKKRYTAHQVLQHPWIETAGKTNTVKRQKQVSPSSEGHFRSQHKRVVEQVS
# UniProt P31749, sequence (whole entry, looked up): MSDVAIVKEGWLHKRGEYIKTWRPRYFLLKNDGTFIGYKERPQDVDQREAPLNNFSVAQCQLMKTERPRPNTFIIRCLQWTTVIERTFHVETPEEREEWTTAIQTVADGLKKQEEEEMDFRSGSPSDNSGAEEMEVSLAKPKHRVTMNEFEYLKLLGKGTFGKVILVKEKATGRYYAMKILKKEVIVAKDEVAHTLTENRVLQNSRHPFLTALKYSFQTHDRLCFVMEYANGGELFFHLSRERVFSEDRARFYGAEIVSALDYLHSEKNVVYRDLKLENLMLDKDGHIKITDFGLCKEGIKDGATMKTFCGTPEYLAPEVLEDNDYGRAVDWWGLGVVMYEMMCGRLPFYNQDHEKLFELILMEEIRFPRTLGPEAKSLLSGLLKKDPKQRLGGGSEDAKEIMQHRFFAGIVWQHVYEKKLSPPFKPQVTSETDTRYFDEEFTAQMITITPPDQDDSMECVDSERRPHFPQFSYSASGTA
# UniProt Q15349, sequence (whole entry, looked up): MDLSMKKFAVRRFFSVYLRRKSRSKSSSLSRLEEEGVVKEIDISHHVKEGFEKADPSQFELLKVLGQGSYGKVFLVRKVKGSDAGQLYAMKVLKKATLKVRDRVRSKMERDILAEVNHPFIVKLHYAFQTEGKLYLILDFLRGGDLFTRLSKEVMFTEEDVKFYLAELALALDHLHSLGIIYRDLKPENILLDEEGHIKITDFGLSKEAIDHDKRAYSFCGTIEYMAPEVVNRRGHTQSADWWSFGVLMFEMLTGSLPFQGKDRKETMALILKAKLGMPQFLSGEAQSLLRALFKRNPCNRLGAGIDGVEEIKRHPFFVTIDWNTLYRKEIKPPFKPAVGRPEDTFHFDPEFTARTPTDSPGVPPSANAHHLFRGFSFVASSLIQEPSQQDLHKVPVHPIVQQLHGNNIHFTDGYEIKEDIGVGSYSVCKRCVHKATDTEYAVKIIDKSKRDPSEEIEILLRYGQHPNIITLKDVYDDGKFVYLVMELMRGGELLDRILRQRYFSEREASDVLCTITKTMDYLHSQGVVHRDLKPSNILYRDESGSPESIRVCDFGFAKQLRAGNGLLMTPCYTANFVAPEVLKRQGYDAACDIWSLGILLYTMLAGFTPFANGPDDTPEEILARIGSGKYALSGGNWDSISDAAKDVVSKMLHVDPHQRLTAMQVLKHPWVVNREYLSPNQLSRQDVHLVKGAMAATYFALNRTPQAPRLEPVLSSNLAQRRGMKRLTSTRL
# UniProt Q00532, sequence (whole entry, looked up): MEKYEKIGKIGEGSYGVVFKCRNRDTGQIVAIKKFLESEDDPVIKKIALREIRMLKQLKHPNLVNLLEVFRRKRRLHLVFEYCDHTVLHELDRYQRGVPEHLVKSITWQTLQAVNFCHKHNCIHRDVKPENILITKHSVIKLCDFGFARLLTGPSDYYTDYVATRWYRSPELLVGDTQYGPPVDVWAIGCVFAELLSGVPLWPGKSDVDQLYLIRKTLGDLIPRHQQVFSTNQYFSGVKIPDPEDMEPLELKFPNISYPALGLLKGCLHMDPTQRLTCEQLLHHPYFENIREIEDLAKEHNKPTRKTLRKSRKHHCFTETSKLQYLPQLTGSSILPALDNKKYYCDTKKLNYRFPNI
# UniProt P10721, sequence (whole entry, unmodified, looked up): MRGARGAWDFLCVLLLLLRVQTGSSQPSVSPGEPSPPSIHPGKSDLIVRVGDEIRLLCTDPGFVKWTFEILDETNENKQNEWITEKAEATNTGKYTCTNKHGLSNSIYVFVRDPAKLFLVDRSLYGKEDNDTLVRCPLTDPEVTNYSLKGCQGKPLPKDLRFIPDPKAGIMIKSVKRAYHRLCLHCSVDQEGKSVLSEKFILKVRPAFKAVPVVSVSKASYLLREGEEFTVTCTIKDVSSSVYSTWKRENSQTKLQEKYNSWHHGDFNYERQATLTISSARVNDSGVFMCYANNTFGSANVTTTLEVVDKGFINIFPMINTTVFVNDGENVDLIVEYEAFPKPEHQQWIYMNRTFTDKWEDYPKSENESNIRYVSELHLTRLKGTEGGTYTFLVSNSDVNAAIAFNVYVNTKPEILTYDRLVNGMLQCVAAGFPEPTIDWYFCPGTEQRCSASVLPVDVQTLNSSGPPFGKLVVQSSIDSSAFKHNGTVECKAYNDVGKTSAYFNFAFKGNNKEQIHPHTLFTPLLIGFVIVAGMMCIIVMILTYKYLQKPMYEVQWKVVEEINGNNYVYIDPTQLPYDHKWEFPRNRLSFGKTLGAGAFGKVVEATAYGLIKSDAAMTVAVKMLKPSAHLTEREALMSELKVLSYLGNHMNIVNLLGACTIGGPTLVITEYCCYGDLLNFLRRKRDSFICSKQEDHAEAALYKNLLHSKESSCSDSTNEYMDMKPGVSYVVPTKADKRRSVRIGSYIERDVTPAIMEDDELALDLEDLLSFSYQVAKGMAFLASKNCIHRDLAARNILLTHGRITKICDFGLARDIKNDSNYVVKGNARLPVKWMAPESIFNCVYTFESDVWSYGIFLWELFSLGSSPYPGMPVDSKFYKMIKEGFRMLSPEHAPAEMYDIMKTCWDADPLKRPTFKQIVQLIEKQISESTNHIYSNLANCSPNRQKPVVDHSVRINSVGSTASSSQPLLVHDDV

# Series 1 — observed: cell-free assay; method: competition with immobilised ligand; concentration: 1 µM
# SMILES: CN(c1ccnc(CNc2nc(Nc3ccc4c(c3)CC(=O)N4)ncc2C(F)(F)F)n1)S(C)(=O)=O
target,remaining binding
"DCLK3 (Homo sapiens, UniProt Q9C098)",43%
"EGFR (Homo sapiens, UniProt P00533, G719S)",89%
"CAMK2A (Homo sapiens, UniProt Q9UQM7)",67%
"AKT1 (Homo sapiens, UniProt P31749)",100%
"CLK1 (Homo sapiens, UniProt P49759)",4.4%
"CDKL1 (Homo sapiens, UniProt Q00532)",61%
"KIT (Homo sapiens, UniProt P10721, D816V)",28%
"Ribosomal protein S6 kinase alpha-2, C-terminal kinase domain (RPS6KA2, Homo sapiens, UniProt Q15349)",95%
"NLK (Homo sapiens, UniProt Q9UBE8)",98%
"SBK3 (Homo sapiens, UniProt P0C264)",100%
"Tyrosine-protein kinase ABL1, phosphorylated (ABL1, Homo sapiens, UniProt P00519, Q252H)",49%
"EGFR (Homo sapiens, UniProt P00533, L861Q)",70%
"SRMS (Homo sapiens, UniProt Q9H3Y6)",62%

# Series 2 — observed: enzyme activity; mode: inhibitor; concentration: 0.5 µM; relative to: control
# Target: Cyclin-dependent kinase 2, with cyclin E (CDK2, Homo sapiens, UniProt P24941)
SMILES,remaining activity [%]
Ic1cccc(CSc2nnc(-c3ccncc3)o2)c1,102
CCN(CC)CCNC(=O)c1c(C)[nH]c(/C=C2\C(=O)Nc3ccc(Cl)cc32)c1C,90
O=C(Nc1cccc(Nc2nccc(Nc3cccc(C(F)(F)F)c3)n2)c1)C1CC1,85.1
O=C1c2ccccc2-[n+]2ccc3c([nH]c4ccccc43)c21,80.3
CCN(CC)C(=O)c1ccc(Nc2nc(OCC3CCCCC3)c3[nH]cnc3n2)cc1,76.5
N#C/C(=C\c1ccc(O)c(O)c1)C(=O)NCc1ccccc1,96.4
COc1cc2ncnc(Nc3ccc(O)c(Br)c3)c2cc1OC,95.7
O=C1C(Cl)=C(N2C(=O)CCC2=O)C(=O)c2ccccc21,90.3
Cc1cc2ncc(-c3ccccc3)nc2cc1C,91.8
Nc1cccc(-c2cc3c(Oc4cccc(O)c4)ncnc3[nH]2)c1,90
Cn1nc2c3c(cccc31)C(=O)c1ccccc1-2,89.4
O=C1c2ccccc2-c2n[nH]c3cccc1c23,79.5
C[C@@H]1CCN(C(=O)CC#N)C[C@@H]1N(C)c1ncnc2[nH]ccc12,90.7
CN(C)C[C@H]1CCn2c(c(C3=C(c4cn(C)c5ccccc45)C(=O)NC3=O)c3ccccc32)C1,64.4
O=C(NC(NC(=S)Nc1ccc(F)c([N+](=O)[O-])c1)C(Cl)(Cl)Cl)C(c1ccccc1)c1ccccc1 (stereo not shown),89.2
COc1cc2ncnc(Nc3cccc(Cl)c3)c2cc1OC,90.4
Cc1nc2cc3nc(-c4cccs4)cnc3cc2n1C,91.4
O=c1cc(-c2cccc3c2Sc2ccccc2S3)oc(N2CCOCC2)c1,84.6
c1ccc(-c2[nH]ncc2-c2ccnc3ccccc23)nc1,91.3
CN([C@@H](Cc1ccc(OS(=O)(=O)c2cccc3cnccc23)cc1)C(=O)N1CCN(c2ccccc2)CC1)S(=O)(=O)c1cccc2cnccc12,94.9
CCOc1nc(NC(=O)Cc2cc(OC)ccc2OC)cc(N)c1C#N,88.9
c1ccc(-c2cnc(Nc3ccc(OCCN4CCCC4)cc3)s2)cc1,85.7

# Series 3 — cell line: mouse MPNST tumor cells; method: high-content immunofluorescence imaging; measured: nuclear SOX9; concentration: 10 µM; time: 12 h; notes: mean of 2 replicates; relative to: DMSO control; reading: higher = more nuclear SOX9
Structure (SMILES),nuclear SOX9 intensity
CCCCn1c(-c2ccccc2)nc(-c2ccccc2)c1CN(Cc1ccc2c(c1)OCO2)Cc1ccc2c(c1)OCO2,155 % of DMSO
COc1cc(NC(=O)c2cccc(-n3cc(NC(=O)Nc4cccc(C)c4)cn3)c2)cc(OC)c1OC,202 % of DMSO
O=c1n(CCCN2CCN(c3cccc(Cl)c3)CC2)nc2ccccn12,103 % of DMSO and 124 % of DMSO
CC[C@H](CO)Nc1nc(NCc2ccccc2)c2ncn(C(C)C)c2n1,82.8 % of DMSO
Cc1cc(/C=C/c2ccc3cc(N(C)C)ccc3[n+]2C)c(C)n1-c1ccccc1,247 % of DMSO and 88.9 % of DMSO
Cc1c(OCc2cccc(-c3ccc(C(=O)O)cc3)c2)cc2c(c1C)C(=O)C(C1CCCC1)C2 (stereo not shown),87 % of DMSO
Cc1cc2cc3c(C)cc(=O)oc3c(C)c2o1,92.2 % of DMSO and 111 % of DMSO
Cc1c(Cl)cccc1Nc1ccccc1C(=O)O,101 % of DMSO
Cc1ccc(NC(=O)CCCCCC(=O)Nc2ccccc2N)cc1,89.8 % of DMSO

# Series 4 — organism: Sarcocystis neurona; observed: parasite growth; concentration: 10 µM; time: 96 h; notes: second screen; relative to: untreated
Structure (SMILES),log2 fold change
CC(C)(C)NCC(O)c1cc(O)cc(O)c1 (stereo not shown),0.51
CN(C)CCC(c1ccc(Cl)cc1)c1ccccn1 (stereo not shown),0.17
CCC(C)(C)C(=O)O[C@H]1C[C@@H](C)C=C2C=C[C@H](C)[C@H](CC[C@@H]3C[C@@H](O)CC(=O)O3)[C@H]21,0.55
COC(=O)C[C@](O)(CCCC(C)(C)O)C(=O)O[C@@H]1C(OC)=C[C@]23CCCN2CCc2cc4c(cc2[C@H]13)OCO4,-6.56
CCCN1C[C@H](CSC)C[C@@H]2c3cccc4[nH]cc(c34)C[C@H]21,0.27

# For quick reference, copied from above (series 3):
Structure (SMILES),nuclear SOX9 intensity
Cc1c(Cl)cccc1Nc1ccccc1C(=O)O,101 % of DMSO
Cc1ccc(NC(=O)CCCCCC(=O)Nc2ccccc2N)cc1,89.8 % of DMSO
COc1cc(NC(=O)c2cccc(-n3cc(NC(=O)Nc4cccc(C)c4)cn3)c2)cc(OC)c1OC,202 % of DMSO
